Measured values collected from several papers.
Compare with care: the assays were run in different laboratories. ± marks the error that the study gave.
GLP1R: Glucagon-like peptide 1 receptor (GLP1R, Homo sapiens, UniProt P43220)
Sequence of UniProt Q9UKD1 (whole entry, looked up): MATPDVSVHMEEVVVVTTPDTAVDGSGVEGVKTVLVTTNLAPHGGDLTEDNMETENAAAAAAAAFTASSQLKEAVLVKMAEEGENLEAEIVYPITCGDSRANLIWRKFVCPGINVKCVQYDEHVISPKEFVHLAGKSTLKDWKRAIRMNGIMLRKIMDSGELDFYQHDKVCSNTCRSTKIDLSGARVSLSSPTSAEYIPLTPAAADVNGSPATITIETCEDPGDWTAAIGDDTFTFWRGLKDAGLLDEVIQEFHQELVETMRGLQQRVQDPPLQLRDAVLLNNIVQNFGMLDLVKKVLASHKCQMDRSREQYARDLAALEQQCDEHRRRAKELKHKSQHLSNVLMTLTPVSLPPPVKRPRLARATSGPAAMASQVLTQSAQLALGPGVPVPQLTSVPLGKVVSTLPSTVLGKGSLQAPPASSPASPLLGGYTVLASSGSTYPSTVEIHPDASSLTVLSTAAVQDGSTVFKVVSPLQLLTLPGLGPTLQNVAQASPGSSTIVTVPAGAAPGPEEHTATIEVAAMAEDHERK
Sequence of UniProt Q16774 (whole entry, unmodified, looked up): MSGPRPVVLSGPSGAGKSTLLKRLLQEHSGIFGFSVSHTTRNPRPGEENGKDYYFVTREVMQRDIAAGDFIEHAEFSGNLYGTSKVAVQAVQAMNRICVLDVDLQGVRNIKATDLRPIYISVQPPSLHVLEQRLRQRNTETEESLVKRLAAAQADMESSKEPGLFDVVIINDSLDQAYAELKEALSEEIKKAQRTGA
Sequence of UniProt P51532 (537-1393, unmodified, looked up): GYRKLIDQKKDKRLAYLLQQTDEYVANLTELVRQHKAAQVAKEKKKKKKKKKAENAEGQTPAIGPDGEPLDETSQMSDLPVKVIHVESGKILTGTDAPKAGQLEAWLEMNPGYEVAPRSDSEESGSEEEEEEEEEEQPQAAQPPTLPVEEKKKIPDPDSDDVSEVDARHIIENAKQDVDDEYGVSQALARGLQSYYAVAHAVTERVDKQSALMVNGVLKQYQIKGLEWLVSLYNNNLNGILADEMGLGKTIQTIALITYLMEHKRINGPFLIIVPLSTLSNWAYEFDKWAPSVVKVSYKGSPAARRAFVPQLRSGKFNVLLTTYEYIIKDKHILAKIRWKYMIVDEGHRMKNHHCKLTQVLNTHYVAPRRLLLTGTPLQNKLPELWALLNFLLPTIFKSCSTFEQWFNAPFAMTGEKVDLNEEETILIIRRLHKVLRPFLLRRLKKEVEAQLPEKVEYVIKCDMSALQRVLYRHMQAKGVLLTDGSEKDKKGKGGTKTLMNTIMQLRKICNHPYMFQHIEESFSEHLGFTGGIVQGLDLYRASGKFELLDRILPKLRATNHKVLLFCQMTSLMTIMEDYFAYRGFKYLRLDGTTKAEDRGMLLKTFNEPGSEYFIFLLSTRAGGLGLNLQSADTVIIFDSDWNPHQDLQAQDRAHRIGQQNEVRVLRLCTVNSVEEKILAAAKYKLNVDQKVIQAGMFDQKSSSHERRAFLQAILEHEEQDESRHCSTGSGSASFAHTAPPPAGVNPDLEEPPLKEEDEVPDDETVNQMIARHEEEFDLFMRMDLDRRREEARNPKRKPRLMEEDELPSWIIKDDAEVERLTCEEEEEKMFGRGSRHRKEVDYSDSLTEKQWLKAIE
Sequence of UniProt P34995 (whole entry, unmodified, looked up): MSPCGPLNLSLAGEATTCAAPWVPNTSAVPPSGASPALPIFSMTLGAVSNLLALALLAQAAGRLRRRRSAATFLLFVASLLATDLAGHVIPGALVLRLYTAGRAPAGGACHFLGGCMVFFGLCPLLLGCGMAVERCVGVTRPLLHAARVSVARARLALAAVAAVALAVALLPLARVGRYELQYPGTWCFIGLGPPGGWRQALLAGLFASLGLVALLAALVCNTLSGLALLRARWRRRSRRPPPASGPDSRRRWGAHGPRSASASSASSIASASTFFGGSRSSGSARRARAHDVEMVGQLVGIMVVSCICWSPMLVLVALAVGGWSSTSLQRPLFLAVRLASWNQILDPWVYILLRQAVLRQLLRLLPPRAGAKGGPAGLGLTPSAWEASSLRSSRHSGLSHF
Sequence of UniProt P17787 (whole entry, looked up): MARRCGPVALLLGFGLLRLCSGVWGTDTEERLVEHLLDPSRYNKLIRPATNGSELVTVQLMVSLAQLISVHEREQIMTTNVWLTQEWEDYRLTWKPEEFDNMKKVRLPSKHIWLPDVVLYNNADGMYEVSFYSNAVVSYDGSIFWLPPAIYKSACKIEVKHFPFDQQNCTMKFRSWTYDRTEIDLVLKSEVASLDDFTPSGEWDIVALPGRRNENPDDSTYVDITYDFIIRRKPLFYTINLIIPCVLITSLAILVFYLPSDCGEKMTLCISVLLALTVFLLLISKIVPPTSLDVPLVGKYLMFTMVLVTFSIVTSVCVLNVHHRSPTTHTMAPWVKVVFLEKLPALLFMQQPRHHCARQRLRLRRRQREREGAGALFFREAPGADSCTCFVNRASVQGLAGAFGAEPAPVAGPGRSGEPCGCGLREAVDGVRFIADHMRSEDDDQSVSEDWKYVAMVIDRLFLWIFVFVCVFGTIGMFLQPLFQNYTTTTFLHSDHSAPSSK
Sequence of UniProt P43681 (whole entry, looked up): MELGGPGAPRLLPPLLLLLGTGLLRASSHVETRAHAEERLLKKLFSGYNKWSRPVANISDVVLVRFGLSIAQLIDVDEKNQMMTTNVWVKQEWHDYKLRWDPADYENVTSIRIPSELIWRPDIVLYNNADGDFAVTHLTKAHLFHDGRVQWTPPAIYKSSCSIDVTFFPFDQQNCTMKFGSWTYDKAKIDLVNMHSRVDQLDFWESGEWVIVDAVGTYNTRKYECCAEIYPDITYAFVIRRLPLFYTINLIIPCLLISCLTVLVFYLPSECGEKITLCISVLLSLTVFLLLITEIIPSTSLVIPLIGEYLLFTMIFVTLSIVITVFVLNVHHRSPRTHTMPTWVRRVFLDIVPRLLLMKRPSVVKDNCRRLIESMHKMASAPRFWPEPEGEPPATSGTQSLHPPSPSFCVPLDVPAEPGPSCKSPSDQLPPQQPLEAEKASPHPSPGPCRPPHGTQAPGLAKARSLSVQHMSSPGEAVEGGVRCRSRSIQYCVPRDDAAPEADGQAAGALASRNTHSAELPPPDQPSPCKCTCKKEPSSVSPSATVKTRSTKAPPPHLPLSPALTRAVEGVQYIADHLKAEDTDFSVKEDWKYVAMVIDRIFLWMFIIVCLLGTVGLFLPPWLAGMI

`CC[C@H](C)[C@H](NC(=O)[C@H](Cc1ccccc1)NC(=O)[C@H](CCC(=O)O)NC(=O)[C@H](CCCNC(=N)N)NC(=O)[C@H](C)NC(=O)[C@H](C)NC(=O)[C@H](CCC(N)=O)NC(=O)[C@H](CCC(=O)O)NC(=O)[C@H](CCC(=O)O)NC(=O)[C@H](CC(C)C)NC(=O)[C@H](Cc1ccc(O)cc1)NC(=O)[C@H](CO)NC(=O)[C@H](CO)NC(=O)[C@H](CCCCNc1c(NCCCCCN(O)C(=O)CCC(=O)NCCCCCN(O)C(=O)CCC(=O)NCCCCCN(O)C(C)=O)c(=O)c1=O)NC(=O)[C@H](CC(=O)O)NC(=O)[C@H](CO)NC(=O)[C@@H](NC(=O)[C@H](Cc1ccccc1)NC(=O)[C@@H](NC(=O)CNC(=O)[C@H](CCC(=O)O)NC(=O)[C@H](C)NC(=O)CCc1cnc[nH]1)[C@@H](C)O)[C@@H](C)O)C(=O)N[C@@H](C)C(=O)N[C@@H](Cc1c[nH]c2ccccc12)C(=O)N[C@@H](CC(C)C)C(=O)N[C@H](C(=O)N[C@@H](CCCCNc1c(NCCCCCN(O)C(=O)CCC(=O)NCCCCCN(O)C(=O)CCC(=O)NCCCCCN(O)C(C)=O)c(=O)c1=O)C(=O)NCC(=O)N[C@@H](CCCNC(=N)N)C(=O)N[C@@H](CCCCNC(=O)COCCOCCNC(=O)COCCOCCNC(=O)CC[C@H](NC(=O)CCCCCCCCCCCCCCCCC(=O)O)C(=O)O)C(=O)O)C(C)C` — result for “fold potency loss”: 68.4 (GLP1R; agonist, CRE luciferase reporter; BHK cells; Zr-loaded DFO conjugate, added: 0% HSA; relative to: parent peptide).
Under “melting temperature shift”, `O=c1cc(-c2ccc([N+](=O)[O-])cc2)[nH]c2c(-c3ccc(Cl)cc3)c(Cc3ccccc3)nn12` is recorded as 7.4 °C (Glucocorticoid modulatory element-binding protein 2 (GMEB2, Homo sapiens, UniProt Q9UKD1); thermal stability, binder, thermal proteome profiling; RD, cell lysate; 50 µM, 0.5% DMSO; relative to: DMSO vehicle).
`C=C1CN(S(=O)(=O)c2ccc(C)cc2)CCCN(Cc2ccccc2)CCCN(S(=O)(=O)c2ccc(C)cc2)C1` gave an FLuc activity of 1.29 (CD4 signal peptide FLuc; HEK293 reporter-transfected; concentration not given, 1 h, unit not given, added: cycloheximide; relative to: mock).
`O=C1CCC(N2C(=O)c3cccc(NCCCCNC(=O)c4cccc(C#Cc5cc(NC(=O)Nc6ccnc(Cl)c6)ccn5)c4)c3C2=O)C(=O)N1` (stereo not drawn) gave a ΔS of -37.6 cal/mol/K (SWI/SNF-related matrix-associated actin-dependent regulator of chromatin subfamily A member 4, residues 537-1393 (SMARCA4, Homo sapiens, UniProt P51532); ITC).
The current of `CCOc1ccc(NC(=O)O[C@H](Cn2nc(C(C)C)cc2C(C)C)C(C)C)cc1` is reported as 86 ± 5% (Neuronal acetylcholine receptor; alpha4/beta2, (α4)2(β2)3 stoichiometry (Homo sapiens, UniProt P17787+P43681); ACh-evoked current, two-electrode voltage clamp; 1 µM, high-sensitivity stoichiometry, added: ACh 1 µM; relative to: ACh alone).
Under “fold potency loss”, `CC[C@H](C)[C@H](NC(=O)[C@H](Cc1ccccc1)NC(=O)[C@H](CCC(=O)O)NC(=O)[C@H](CCCNC(=N)N)NC(=O)[C@H](C)NC(=O)[C@H](C)NC(=O)[C@H](CCC(N)=O)NC(=O)[C@H](CCC(=O)O)NC(=O)[C@H](CCC(=O)O)NC(=O)[C@H](CC(C)C)NC(=O)[C@H](Cc1ccc(O)cc1)NC(=O)[C@H](CO)NC(=O)[C@H](CO)NC(=O)[C@@H](NC(=O)[C@H](CC(=O)O)NC(=O)[C@H](CO)NC(=O)[C@@H](NC(=O)[C@H](Cc1ccccc1)NC(=O)[C@@H](NC(=O)CNC(=O)[C@H](CCC(=O)O)NC(=O)[C@H](C)NC(=O)CCc1cnc[nH]1)[C@@H](C)O)[C@@H](C)O)C(C)C)C(=O)N[C@@H](C)C(=O)N[C@@H](Cc1c[nH]c2ccccc12)C(=O)N[C@@H](CC(C)C)C(=O)N[C@H](C(=O)N[C@@H](CCCNC(=N)N)C(=O)NCC(=O)N[C@@H](CCCNC(=N)N)C(=O)N[C@@H](CCCCNC(=O)COCCOCCNC(=O)COCCOCCNC(=O)CC[C@H](NC(=O)CCCCCCCCCCCCCCCCC(=O)O)C(=O)O)C(=O)NCC(=O)NCC(=O)N[C@@H](CO)C(=O)N[C@@H](CCCCNc1c(NCCCCCN(O)C(=O)CCC(=O)NCCCCCN(O)C(=O)CCC(=O)NCCCCCN(O)C(C)=O)c(=O)c1=O)C(=O)NCC(=O)NCC(=O)N[C@@H](CO)C(=O)N[C@@H](CCCCNc1c(NCCCCCN(O)C(=O)CCC(=O)NCCCCCN(O)C(=O)CCC(=O)NCCCCCN(O)C(C)=O)c(=O)c1=O)C(=O)O)C(C)C` is recorded as 3.6 (GLP1R; agonist, CRE luciferase reporter; BHK cells; Zr-loaded DFO conjugate, added: 0% HSA; relative to: parent peptide).
With `CCCCC[C@H](O)/C=C/[C@H]1[C@H](O)CC(=O)[C@@H]1C/C=C\CCCC(=O)O` the Emax was 77.1 ± 4.3% (Prostaglandin E2 receptor EP1 subtype (PTGER1, Homo sapiens, UniProt P34995, F334A/G92A/P39A); IP1 accumulation, agonist; AD293; 1 h; relative to: wild type receptor).
With `Nc1ncnc2c1ncn2[C@@H]1O[C@H](COP(=O)(O)OP(=O)(O)O)[C@@H](O)[C@H]1O` the ΔH was -0.144 kcal/mol (GUK1 (Homo sapiens, UniProt Q16774); ITC; molar ratio 2.83).
Under “fraction bound to F-actin”, `CC[C@H](C)[C@H](NC(=O)[C@H](Cc1ccc(O)cc1)NC(=O)[C@@H](N)CCC(N)=O)C(=O)N[C@@H](CC(C)C)C(=O)N[C@@H](CC(N)=O)C(=O)N[C@@H](C)C(=O)N[C@@H](CC(N)=O)C(=O)N[C@@H](CC(N)=O)C(=O)N[C@@H](CC(C)C)C(=O)N[C@H](C(=O)N[C@H](C(=O)N[C@@H](CCC(N)=O)C(=O)N[C@@H](Cc1ccccc1)C(=O)N[C@H](C(=O)N[C@H](C(=O)N[C@@H](CCCNC(=N)N)C(=O)N[C@@H](CC(C)C)C(=O)N[C@@H](CO)C(=O)N[C@@H](C)C(=O)N[C@H](C(=O)O)C(C)C)[C@@H](C)O)[C@@H](C)O)[C@@H](C)CC)[C@@H](C)CC` is recorded as about 60% (ADP-F-actin (rabbit); binding; 5 µM, 30 min, msfGFP-tagged peptide, added: 3 µM ADP-F-actin).
